Published values gathered from unrelated publications.
Each line is one published result; not all experiments were run side by side.

Compound | organism | assay | system | setting | MIC
CC[C@H](C)[C@@H]1NC(=O)CNC(=O)[C@H](CCCCN)NC(=O)[C@H](C)NC(=O)[C@H](CCC(=O)O)NC(=O)[C@H](Cc2ccccc2)NC(=O)[C@H](CO)NC(=O)[C@H](CC(C)C)NC(=O)[C@H](C(C)C)NC(=O)[C@H](CC(=O)O)NC(=O)[C@@H](NC(=O)[C@@H](NC(=O)[C@@H](N)C(C)C)[C@@H](C)O)CSSC[C@@H]2NC(=O)[C@H](CO)NC(=O)CNC(=O)CNC(=O)[C@H](CCCCN)NC(=O)[C@H](CCCCN)NC(=O)[C@H](CCCNC(=N)N)NC(=O)[C@H](CC(C)C)NC(=O)[C@H](C)NC(=O)[C@H]([C@@H](C)CC)NC(=O)[C@@H]3CSSC[C@@H](C(=O)N[C@@H](CCCNC(=N)N)C(=O)N[C@@H](CC(N)=O)C(=O)O)NC(=O)[C@H](C(C)C)NC(=O)[C@H](CSSC[C@H](NC(=O)[C@H](C)NC(=O)[C@H](CO)NC(=O)[C@H](Cc4c[nH]cn4)NC(=O)[C@H](CC(N)=O)NC(=O)[C@H](C(C)C)NC(=O)[C@H](C)NC1=O)C(=O)N[C@@H](C)C(=O)N[C@@H](CC(C)C)C(=O)N[C@@H](Cc1c[nH]cn1)C(=O)N3)NC(=O)[C@H](C(C)C)NC(=O)CNC(=O)[C@H](CC(N)=O)NC(=O)[C@H](CCC(N)=O)NC2=O | Malassezia furfur | broth microdilution | KCTC 7744 | 32 °C, YM broth with 1% olive oil | 5 µM
CC[C@H](C)[C@H](NC(=O)[C@H](CO)NC(=O)[C@H](CO)NC(=O)[C@H](Cc1ccccc1)NC(=O)CN)C(=O)N[C@@H](Cc1ccccc1)C(=O)N[C@@H](CCCNC(=N)N)C(N)=O | Escherichia coli |  | ATCC 8739 | with: 6 µM NH4Cl | > 128 µM
COC1C=COC2(C)Oc3c(C)c(O)c4c(c3C2=O)C2=NC3(CCN(CC(C)C)CC3)NC2=C(NC(=O)C(C)=CC=CC(C)C(O)C(C)C(O)C(C)C(OC(=O)Nc2cscn2)C1C)C4=O (stereo not shown) | Mycobacteroides abscessus |  | ATCC 19977 arr knockout |  | 0.021 µM
C=CCCC[C@@H]1NC(=O)[C@H](CC(C)C)NC(=O)[C@H](C)NC(=O)[C@H](NC(=O)[C@H](CO)NC(=O)[C@@H](CCCCN)NC(=O)[C@@H](CCCC=C)NC(=O)[C@@H](N)Cc2ccccc2)[C@H](C)OC1=O | Bacillus subtilis Bacillus subtilis |  | ATCC 6051 | tested as TFA salt | 0.5 µg/mL
C[N+]1=C2C(c3ccccc3)=[N+]([O-])c3ccccc3N2CCC1 | Fusobacterium mortiferum | microbial growth |  |  | 4 µg/mL
CC[C@H](C)[C@H](NC(=O)[C@H](Cc1c[nH]c2ccccc12)NC(=O)[C@H](CCCNC(=N)N)NC(=O)[C@H](CCC(N)=O)NC(=O)[C@@H](NC(=O)[C@H](Cc1c[nH]c2ccccc12)NC(=O)[C@H](CCCNC(=N)N)NC(=O)[C@H](CCCNC(=N)N)NC(=O)[C@H](C)NC(=O)[C@H](C)NC(=O)[C@H](C)NC(=O)[C@@H](NC(=O)[C@H](CCCCN)NC(=O)[C@@H]1CCCN1C(=O)[C@H](CCCNC(=N)N)NC(=O)[C@H](Cc1c[nH]c2ccccc12)NC(=O)[C@H](CCCNC(=N)N)NC(=O)[C@H](CCCNC(=N)N)NC(=O)[C@@H](NC(=O)[C@H](Cc1c[nH]c2ccccc12)NC(=O)[C@H](CCCNC(=N)N)NC(=O)[C@H](CCC(N)=O)NC(=O)[C@@H](NC(=O)[C@H](Cc1c[nH]c2ccccc12)NC(=O)[C@H](CCCNC(=N)N)NC(=O)[C@@H](N)CCCNC(=N)N)C(C)C)[C@@H](C)CC)C(C)C)C(C)C)C(=O)N[C@@H](CCCNC(=N)N)C(=O)N[C@@H](CCCNC(=N)N)C(=O)N[C@@H](Cc1c[nH]c2ccccc12)C(=O)N[C@@H](CCCNC(=N)N)C(=O)N1CCC[C@H]1C(=O)N[C@@H](CCCCN)C(=O)N[C@H](C(N)=O)C(C)C | Malassezia furfur | cell growth | DTO 383-D9 | 48 h, 30 °C | ≤ 0.3 µM
[O-][N+]1=C(c2ccccc2)C2=NCCN2c2ccccc21 | Eggerthella lenta | microbial growth | ATCC43055 |  | ≤ 0.06 µg/mL
COc1ccc2ccc3c(c2c1)C=[N+]1C2CCCCC2[N+]2=Cc4cc(C(C)(C)C)cc(C(C)(C)C)c4[O][Au-]21[O]3.F[P-](F)(F)(F)(F)F (stereo not shown) | Klebsiella pneumoniae | bacterial growth, broth microdilution | carbapenem-resistant clinical isolate | 24 h | > 20 µM
CC1C(=NNC(=O)c2ccncc2)C(C)C(c2ccc(Br)cc2)OC1c1ccc(Br)cc1 (stereo not shown) | Aspergillus flavus | microbial growth |  |  | 100 µg/mL
CC[C@H](C)[C@H](NC(=O)[C@H](CO)NC(=O)[C@H](CO)NC(=O)[C@H](Cc1ccccc1)NC(=O)CN)C(=O)N[C@@H](Cc1ccccc1)C(=O)N[C@@H](CCCNC(=N)N)C(=O)NCC(=O)N[C@H](C(=O)N[C@@H](C)C(=O)N[C@@H](CCCCN)C(N)=O)C(C)C | Escherichia coli |  | ATCC 8739 | with: 150 mM NaCl | > 128 µM
[O-][N+]1=C(c2ccccc2)C2=NCCCN2c2ncccc21 | Peptostreptococcus anaerobius |  |  |  | 0.25 µg/mL
CC(C)C[C@@H]1NC(=O)[C@H](C)NC(=O)[C@H](NC(=O)[C@H](C)NC(=O)[C@@H](CCCCN)NC(=O)[C@@H](CC(C)C)NC(=O)[C@@H](N)Cc2ccccc2)[C@H](C(N)=O)OC(=O)[C@H](CC(C)C)NC1=O | Bacillus subtilis Bacillus subtilis |  | ATCC 6051 | tested as TFA salt | 2 µg/mL
CN[C@@H]1[C@H](O)[C@H](NC)[C@H]2O[C@]3(O)[C@H](O[C@@H]2[C@H]1O)O[C@H](C)C[C@@]3(O)CNCc1ccc(Cl)cc1 | Listeria monocytogenes |  |  |  | 6.3 µg/mL
[O-][N+]1=C(Cc2ccccc2)C2=NCCCN2c2ccccc21 | Bacteroides ovatus |  | ATCC 84834 |  | 4 µg/mL
O=C(NCc1nc(-c2ccc(Br)cc2)c[nH]1)Nc1ncc(Sc2ccccn2)s1 | Bacteroides ovatus | broth microdilution | ATCC 8485 | without verapamil | > 128 µM
CC(C)C[C@@H]1NC(=O)[C@H](C)NC(=O)[C@@H]2NC(=O)[C@H](CO)NC(=O)[C@@H](CCCCN)NC(=O)[C@H](NC(=O)[C@@H](N)Cc3ccccc3)CCCCCCCC[C@H](NC1=O)C(=O)O[C@H]2C | Bacillus subtilis Bacillus subtilis |  | ATCC 6051 | tested as TFA salt | 4 µg/mL
C[N+]1=C2C(c3ccc(Cl)cc3)=[N+]([O-])c3ccccc3N2CCC1 | Fusobacterium nucleatum | microbial growth | ATCC25586 |  | 4 µg/mL
CCCCc1ccc(-c2nc(C)c(C(C)=NNC(=N)N)s2)cc1 | Staphylococcus aureus |  | USA400 MRSA |  | 1.3 µg/mL
CCCCCCCCCCCC[S+]([O-])CC1OC(OC2C(N)CC(N)C(OC3OC(CN)C(O)CC3N)C2O)C(O)C(N)C1O (mixture of isomers) | Listeria monocytogenes |  | ATCC 19115 |  | 9.4 µg/mL
c1ccc(CCNC2CCCc3c2[nH]c2ccc(C4CCCCC4)cc32)cc1 (stereo not shown) | Micrococcus luteus | microbial growth, broth dilution | DSM1790 |  | 1 µg/mL
CC[C@H](C)[C@@H]1NC(=O)[C@H](CC(C)C)NC(=O)[C@@H](NC(=O)[C@H](CO)NC(=O)[C@H](CCCNC(=N)N)NC(=O)[C@@H](N)CO)CSSC[C@@H](C(=O)N[C@@H](CCC(N)=O)C(=O)N[C@@H](CCCNC(=N)N)C(=O)N[C@@H](CC(C)C)C(=O)N[C@@H](Cc2ccccc2)C(N)=O)NC(=O)[C@H](C(C)C)NC1=O | Listeria monocytogenes | broth microdilution | ATCC BAA-679 (EGD-e) |  | 100 µg/mL
O=[N+]([O-])c1ccc(C2=[N+]([O-])c3ccccc3N3CCCN=C23)cc1 | Eggerthella lenta | microbial growth | ATCC43055 |  | ≤ 0.06 µg/mL
CC[C@H](C)[C@H](NC(=O)[C@@H](NC(=O)CN)C(C)C)C(=O)N[C@@H](Cc1ccccc1)C(=O)N[C@@H](CC(N)=O)C(=O)N[C@@H](C)C(=O)N[C@@H](CC(C)C)C(=O)N[C@@H](CCCCN)C(=O)NCC(=O)N[C@H](C(=O)N[C@@H](C)C(=O)N[C@@H](CCCCN)C(=O)N[C@H](C(=O)N[C@H](C(=O)N[C@@H](C)C(=O)N[C@@H](C)C(=O)N[C@@H](CCC(N)=O)C(=O)N[C@@H](CC(C)C)C(=O)N[C@@H](CC(C)C)C(=O)N[C@@H](CCCCN)C(=O)N[C@@H](CCCCN)C(=O)N[C@@H](C)C(=O)N[C@@H](CCCNC(=N)N)C(=O)N[C@H]1CSSC[C@@H](C(=O)O)NC(=O)[C@H](CO)NC(=O)[C@H](CCCCN)NC(=O)[C@H](CC(=O)O)NC(=O)[C@H](CC(C)C)NC(=O)[C@H](CCCCN)NC1=O)C(C)C)[C@@H](C)O)C(C)C | Staphylococcus aureus |  | MRSA NCTC 12493, Mueller-Hinton broth | with: MgCl2 1 mM | 2 µM
[O-][N+]1=C(c2ccc(Cl)cc2)C2=NCCCCN2c2ccccc21 | Eggerthella lenta | microbial growth | ATCC43055 |  | 1 µg/mL
CCCCCCCCCCCCCCCCCCCCCCSCC1OC(OC2C(N)CC(N)C(OC3OC(CN)C(O)CC3N)C2O)C(O)C(N)C1O (stereo not shown) | Listeria monocytogenes |  | ATCC 19115 |  | 18.8 µg/mL
